Assay results of several laboratories.
Protocols differ between the studies behind these lines. ± marks the error that the study gave.
Method: steady-state kinetics
B1: CYP4F3 A27G/C46R/I34V/M14V/R49Q/W12G (Homo sapiens, UniProt Q08477); chain MALLLAVFLLGPVAASPWLLLLLVGGSWLLARVLAWTYTFYDNCRRLQCFPQPPKRNWFLGHLGLIHSSEEGLLYTQSLACTFGDMCCWWVGPWHAIVRIFHPTYIKPVLFAPAAIVPKDKVFYSFLKPWLGDGLLLSAGEKWSRHRRMLTPAFHFNILKPYMKIFNESVNIMHAKWQLLASEGSARLDMFEHISLMTLDSLQKCVFSFDSHCQEKPSEYIAAILELSALVTKRHQQILLYIDFLYYLTPDGQRFRRACRLVHDFTDAVIQERRRTLPSQGVDDFLQAKAKSKTLDFIDVLLLSKDEDGKKLSDEDIRAEADTFMFEGHDTTASGLSWVLYHLAKHPEYQERCRQEVQELLKDREPKEIEWDDLAQLPFLTMCIKESLRLHPPVPAVSRCCTQDIVLPDGRVIPKGIICLISVFGTHHNPAVWPDPEVYDPFRFDPKNIKERSPLAFIPFSAGPRNCIGQAFAMAEMKVVLGLTLLRFRVLPDHTEPRRKPELVLRAEGGLWLRVEPLS
B2: SCO6712 V290N/Y229F (Streptomyces coelicolor, UniProt Q9XAL8); chain AKGITARTAPAGGEVRHLKMYAEKLADGQMGYGFEKGKASVPGPLIEVNEGDTLHIEFTNTMDVRASLHVHGLDYEISSDGTAMNKSDVEPGGTRTYTWRTHKPGRRDDGTWRPGSAGYWHYHDHVVGTEHGTGGIRNGLYGPVIVRRKGDVLPDATHTIVFNDMTINNRKPHTGPDFEATVGDRVEIVMITHGEFYHTFHMHGHRWADNRTGILTGPDDPSRVIDNKITGPADSFGFQIIAGEGVGAGAWMYHCHNQSHSDMGMVGLFLVKKPDGTIPGYEPHEHGGATAKSGESGEPTGGAAAHEHEH
B3: NUDT12 (Homo sapiens, UniProt Q9BQG2); chain MSSVKRSLKQEIVTQFHCSAAEGDIAKLTGILSHSPSLLNETSENGWTALMYAARNGHPEIVQFLLEKGCDRSIVNKSRQTALDIAVFWGYKHIANLLATAKGGKKPWFLTNEVEECENYFSKTLLDRKSEKRNNSDWLLAKESHPATVFILFSDLNPLVTLGGNKESFQQPEVRLCQLNYTDIKDYLAQPEKITLIFLGVELEIKDKLLNYAGEVPREEEDGLVAWFALGIDPIAAEEFKQRHENCYFLHPPMPALLQLKEKEAGVVAQARSVLAWHSRYKFCPTCGNATKIEEGGYKRLCLKEDCPSLNGVHNTSYPRVDPVVIMQVIHPDGTKCLLGRQKRFPPGMFTCLAGFIEPGETIEDAVRREVEEESGVKVGHVQYVACQPWPMPSSLMIGCLALAVSTEIKVDKNEIEDARWFTREQVLDVLTKGKQQAFFVPPSRAIAHQLIKHWIRINPNL
B4: enzyme W53F (Thermoplasma volcanium, UniProt Q978S7); chain MAFHGLVKYSDITVEGYPKIQYHGFIGNNRTAMLVAMNGYIDFGCLPNFNSNAVFSSILDKNKGGYFAIFPSDTTDVYVDQYYKEMTNVLVTEFVKNGKIILRLTDFMPDSEYGKISFPEVHRFVESFSEPIDITIDFKPTFNYGQDKPIIEKDQHGFIFTTDKESIGISSEFPLRKNSDRIFGNVKMEPRSSSWIIALYGIHHLFRTTDYKSYLRLQETTDYWRKWASSSSYAGAYHSMVMRSALALKVLFYEPTGLMVAAPTASLPEAIGGERNWDYRFTWIRDTAYVIEALSSIGYKYEATEFLYDMMDMITRDNRIRTIYSIDDSNDLEERIIDYEGYRGSRPVRIGNKAVDQLQIDQYGSIVRAIHSMAKAGGIVNSYLWDFVEQVMAKIEYLWKYPDSSIWEFRTEPKQYVYSKVMSWAAFDSAISMAKDLGLSAPIKQWKSIQDEIKKEVLEKGFDTDTNSFVQYYGSKNIDAALLRLPILGFIPANDEKFLGTLSRIEKELMVDGYLFKRYREDDGLKGDEGSFLMLTFWYIEDLILMKRLKKAREVLESVLEKANHLGLYSEEIDEKSGDFLGNFPQALSHLGVIRVAPKLEEALLKRTSKINS
B5: enzyme (Plasmodium falciparum, UniProt C0H484); chain MVREAHELLDGSRPIPIDKITYELSQNIILAFDNHENINNKDIQIEIEGRVGLVIDKNKNRIKLPINTDAIIENNYSDFQAGIDRESFEYLLDYFHNMTLKKRLSIRNNDNNNNNMDNNNNNMDNNNNIHIHNSGNNTNQTHSYDKNADDNKPTCNYSYDKKNACIYDFLELKTTKSIDKYYVIKNNNSRIRTTTYLNDDNKQETESMMIQSLQKDNLNIWNVYTGNNYDYFDDDEEDDDDDYNNNNNNNNGDTGTKTNIATNNTHGLTTSKSQHIYNNLVDKNDSIDYRISINIEYTKPISKLYLSKNTPVHERLKERTTFINTYLGLQVDMTKIKTKNNELYEVEIEIPSKTIFKAMSNLRNKKDSNYLHFICSNLVNNIRGICSQLNVFKKSKHMLKNTMITKLNNNSNNQNNLSLLPNHPNDDTISSKEKEKFKKYIHSVLPIVGDY
B6: enzyme (Enterococcus faecium, UniProt A0A132Z3A5); chain MAKELKFAEDARAAMLRGVDKLADTVKVTLGPKGRNVVLEKSYGSPLITNDGVTIAKEIELEDHFENMGAKLVSEVASKTNDIAGDGTTTATVLTQAIVREGLKNVTAGANPLGIRRGIELATKAAVEELHNISTVVDSKEAIAQVAAVSSGSDKVGHLIADAMEKVGNDGVITIEESKGIETELDVVEGMQFDRGYLSQYMVTDNDKMEAVLENPYILITDKKISNIQDILPLLEQILQQSRPLLIIADDVDGEALPTLVLNKIRGTFNVVAVKAPGFGDRRKAMLEDIAILTGGTVITDDLGLELKDVTIENLGNASKVVVDKDNTTIVEGSGEKEAIEARVQLIKNQIAETTSDFDREKLQERLAKLAGGVAVVKVGAATETELKELKLRIEDALNATRAAVEEGMVSGGGTALVNVISKVSAVEAEGDVATGIKIVVRALEEPIRQIAENAGYEGSVIVDKLKNVELGTGFNAATGEWVNMVEAGIVDPTKVTRSALQNAASVSALLLTTEAVVADKPEPAAPAAPAMDPSMMGGMM
B7: enzyme (Schizosaccharomyces pombe, UniProt P78804); chain MSTPYEPEFQQAYKEIVGSIESSKLFEVHPELKRVLPIISIPERVLEFRVTWEDDKGNCRVNTGYRVQFNSALGPYKGGLRFHPSVNLSILKFLGFEQIFKNALTGLPMGGGKGGSDFDPKGKSDNEIRRFSQAFMRQLFRYIGPQTDVPAGDIGVTGFVVMHMFGEYKRLRNEYSGVVTGKHMLTGGSNIRPEATGYGVVYYVKHMIEHRTKGAETLKGKRVAISGSGNVAQYAALKCIQEGAIVKSISDSKGVLIAKTAEGLVPEEIHEIMALKEKRASIADSASLCKKHHYIAGARPWTNVGEIDIALPCATQNEVSGEEAAALIKQGCRYVAEGSNMGSSAEAVEVFEKSRASGEGCWLAPGKAANAGGVAVSGLEMAQNAQFSTWTHAEVDAKLAGIMQNIFEQSTDVASKYCDSGSNNIPSLVDGANIAGFLKVATAMQAVGDWW
B8: enzyme (Saccharina japonica, UniProt A0A097IUE3); chain QQLGKTASMATVSSLGIDKATGIKNPTTVHRNLPYPEVFEHEVKHKEGEVTSNGTFCVSTGQFTGRSPKDKYFVKQAPSDKNLDWGKVNVGVAPDVFKNIYKKAVKHYNDNVEKMYVFDGYCGTSPKSRKNVRIITELAWQHHFAKNMFIRPESEAEVADFAPDFTIVNACKVVNDDYKELGLNSEVAVVFNVEERKAVITGTWYGGEMKKGIFSMMNYWLPLDGVMAMHCSANKGKNGDTALFFGLSGTGKTTLSADPDRYLIGDDEHGWDDDGIFNFEGGCYAKTINLSHKNEPEIYDAIKKDALLENVIIKGNGDPDYTDVSKTENTRVSYPIYHIDNYEPSGMGGHPNSIVFLTCDAFGVLPPVSRLSAGQAMYHFLSGYTAKVAGTERGVTEPTPNFSACFGAAFLTLHPTAYADLLQKKLDTHGTQCFLINTGWTGGGYGVGKRMSIKATRACVNSVLDGSINKTKFTADPVFGFEVPADLPGVPSKVLNPRDAWSDKESYDTTRTKLAGMFKDNFTKFVKPGVTNYTAYGPK
Chain of UniProt Q96C36 (whole entry, unmodified, looked up): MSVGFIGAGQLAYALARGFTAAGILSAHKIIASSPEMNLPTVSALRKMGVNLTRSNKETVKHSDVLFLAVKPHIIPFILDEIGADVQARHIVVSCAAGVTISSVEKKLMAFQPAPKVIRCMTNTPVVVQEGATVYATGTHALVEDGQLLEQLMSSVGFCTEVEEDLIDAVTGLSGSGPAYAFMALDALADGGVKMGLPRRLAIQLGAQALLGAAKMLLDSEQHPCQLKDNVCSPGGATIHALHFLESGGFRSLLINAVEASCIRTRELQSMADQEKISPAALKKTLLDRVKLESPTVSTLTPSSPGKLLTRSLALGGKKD

Substance	substrate	setting	kcat/Km [M⁻¹ s⁻¹]
B1	CCCCC/C=C\C[C@@H](O)/C=C/C=C/C=C\[C@@H](O)CCCC(=O)O	pH 7.4	100
B2 (SCO6712 V290N/Y229F)	CCn1c(=NN=c2sc3cc(S(=O)(=O)O)ccc3n2CC)sc2cc(S(=O)(=O)O)ccc21	pH 7, 37 °C, NaCl 150 mM, with: O2 cosubstrate	1800 ± 200
enzyme (UniProt F0RRL2)	OC[C@H]1O[C@@](CO)(O[C@H]2O[C@H](CO)[C@@H](O)[C@H](O)[C@H]2O)[C@@H](O)[C@@H]1O	pH 5.5, 37 °C, apparent	1800
B3 (NUDT12)	Nc1ncnc2c1ncn2[C@@H]1O[C@H](COP(=O)(O)OP(=O)(O)OP(=O)(O)OP(=O)(O)OP(=O)(O)OC[C@H]2O[C@@H](n3cnc4c(N)ncnc43)[C@H](O)[C@@H]2O)[C@@H](O)[C@H]1O	with: Mg2+	29
B4 (enzyme W53F)	OC[C@H]1O[C@H](O[C@H]2O[C@H](CO)[C@@H](O)[C@H](O)[C@H]2O)[C@H](O)[C@@H](O)[C@@H]1O	pH 3.7, 30 °C	330
B5 (enzyme)	O=P(O)(O)OP(=O)(O)OP(=O)(O)OC[C@H]1O[C@@H](n2cnc3c(O)ncnc32)[C@H](O)[C@@H]1O	with: Mn2+	23000 ± 3000
B6 (enzyme)	Nc1ncnc2c1ncn2[C@@H]1O[C@H](COP(=O)(O)OP(=O)(O)OP(=O)(O)O)[C@@H](O)[C@H]1O	pH 7.4, 24 °C, apparent, per site	1890
enzyme (Parabacteroides distasonis, UniProt A0A7L5EB83)	CC(=O)N[C@H]1[C@H](Oc2ccc([N+](=O)[O-])cc2)O[C@H](CO)[C@@H](O[C@@H]2O[C@H](CO)[C@H](O)[C@H](O)[C@H]2O)[C@@H]1O	pH 6, 50 °C	13400
B7 (enzyme)	NC(=O)c1ccc[n+]([C@@H]2O[C@H](COP(=O)(O)OP(=O)(O)OC[C@H]3O[C@@H](n4cnc5c(N)ncnc54)[C@H](OP(=O)(O)O)[C@@H]3O)[C@@H](O)[C@H]2O)c1	pH 7, 30 °C, apparent	330000 ± 30000
enzyme (Chlamydomonas reinhardtii, UniProt A0A2K3D977)	NC(=O)C1=CN([C@@H]2O[C@H](COP(=O)(O)OP(=O)(O)OC[C@H]3O[C@@H](n4cnc5c(N)ncnc54)[C@H](O)[C@@H]3O)[C@@H](O)[C@H]2O)C=CC1	pH 7.5, with: DHAP 5 mM	3.2e+06 ± 300000
enzyme (Homo sapiens, UniProt Q08623)	O=c1[nH]cc([C@@H]2O[C@H](COP(=O)(O)O)[C@@H](O)[C@H]2O)c(=O)[nH]1	pH 7, 25 °C	783000
HNL C81L/E79H/G176S/H103V/K236M/N104A/S105A/T11G/V106F (Hevea brasiliensis)	CC(=O)Oc1ccc([N+](=O)[O-])cc1	pH 7.2, 22 °C	383
enzyme (Bacteroides ovatus, UniProt A0AAN3A6N4)	O=[N+]([O-])c1ccc(O[C@H]2O[C@H](CO)[C@@H](O)[C@H](O)[C@H]2O)cc1	pH 6.6	276000
B8 (enzyme)	C=C(OP(=O)(O)O)C(=O)O	pH 6.5, 25 °C, with: 2 mM ADP	21000
PYCR2 (Homo sapiens, UniProt Q96C36)	NC(=O)C1=CN([C@@H]2O[C@H](COP(=O)(O)OP(=O)(O)OC[C@H]3O[C@@H](n4cnc5c(N)ncnc54)[C@H](O)[C@@H]3O)[C@@H](O)[C@H]2O)C=CC1	pH 7.5, 37 °C, apparent, cofactor varied, with: DL-P5C 5000 µM	161000 ± 44000

A few entries again:
Substance	substrate	setting	kcat/Km [M⁻¹ s⁻¹]
enzyme (UniProt F0RRL2)	OC[C@H]1O[C@@](CO)(O[C@H]2O[C@H](CO)[C@@H](O)[C@H](O)[C@H]2O)[C@@H](O)[C@@H]1O	pH 5.5, 37 °C, apparent	1800
B3 (NUDT12)	Nc1ncnc2c1ncn2[C@@H]1O[C@H](COP(=O)(O)OP(=O)(O)OP(=O)(O)OP(=O)(O)OP(=O)(O)OC[C@H]2O[C@@H](n3cnc4c(N)ncnc43)[C@H](O)[C@@H]2O)[C@@H](O)[C@H]1O	with: Mg2+	29
